Experimental data of several laboratories.
A part holds a random share of what one study measured. Substitutions count along the parent as printed.
UniProt Q7KZI7, sequence (whole entry, looked up): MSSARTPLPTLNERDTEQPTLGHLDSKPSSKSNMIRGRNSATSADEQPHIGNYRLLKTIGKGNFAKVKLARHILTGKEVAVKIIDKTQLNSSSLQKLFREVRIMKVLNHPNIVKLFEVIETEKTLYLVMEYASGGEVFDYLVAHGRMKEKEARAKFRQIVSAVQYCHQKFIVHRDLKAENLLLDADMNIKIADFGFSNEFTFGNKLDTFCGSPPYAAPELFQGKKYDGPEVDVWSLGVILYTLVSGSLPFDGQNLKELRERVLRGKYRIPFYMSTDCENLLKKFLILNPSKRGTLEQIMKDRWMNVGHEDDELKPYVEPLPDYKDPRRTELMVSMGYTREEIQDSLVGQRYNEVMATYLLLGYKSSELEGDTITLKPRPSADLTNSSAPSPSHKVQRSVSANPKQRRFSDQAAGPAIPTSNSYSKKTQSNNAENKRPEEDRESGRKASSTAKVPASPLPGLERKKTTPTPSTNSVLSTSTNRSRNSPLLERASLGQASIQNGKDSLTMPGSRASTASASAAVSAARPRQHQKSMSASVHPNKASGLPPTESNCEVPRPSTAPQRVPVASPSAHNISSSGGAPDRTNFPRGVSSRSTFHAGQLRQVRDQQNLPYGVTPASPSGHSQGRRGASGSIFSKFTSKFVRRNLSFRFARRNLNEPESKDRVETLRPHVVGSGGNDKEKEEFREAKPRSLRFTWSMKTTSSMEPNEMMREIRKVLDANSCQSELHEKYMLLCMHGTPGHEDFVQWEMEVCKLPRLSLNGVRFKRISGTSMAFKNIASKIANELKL

Study 1
Target: UDP-N-acetylglucosamine--peptide N-acetylglucosaminyltransferase 110 kDa subunit (OGT, Homo sapiens, UniProt O15294)
UniProt O15294, sequence (whole entry, looked up): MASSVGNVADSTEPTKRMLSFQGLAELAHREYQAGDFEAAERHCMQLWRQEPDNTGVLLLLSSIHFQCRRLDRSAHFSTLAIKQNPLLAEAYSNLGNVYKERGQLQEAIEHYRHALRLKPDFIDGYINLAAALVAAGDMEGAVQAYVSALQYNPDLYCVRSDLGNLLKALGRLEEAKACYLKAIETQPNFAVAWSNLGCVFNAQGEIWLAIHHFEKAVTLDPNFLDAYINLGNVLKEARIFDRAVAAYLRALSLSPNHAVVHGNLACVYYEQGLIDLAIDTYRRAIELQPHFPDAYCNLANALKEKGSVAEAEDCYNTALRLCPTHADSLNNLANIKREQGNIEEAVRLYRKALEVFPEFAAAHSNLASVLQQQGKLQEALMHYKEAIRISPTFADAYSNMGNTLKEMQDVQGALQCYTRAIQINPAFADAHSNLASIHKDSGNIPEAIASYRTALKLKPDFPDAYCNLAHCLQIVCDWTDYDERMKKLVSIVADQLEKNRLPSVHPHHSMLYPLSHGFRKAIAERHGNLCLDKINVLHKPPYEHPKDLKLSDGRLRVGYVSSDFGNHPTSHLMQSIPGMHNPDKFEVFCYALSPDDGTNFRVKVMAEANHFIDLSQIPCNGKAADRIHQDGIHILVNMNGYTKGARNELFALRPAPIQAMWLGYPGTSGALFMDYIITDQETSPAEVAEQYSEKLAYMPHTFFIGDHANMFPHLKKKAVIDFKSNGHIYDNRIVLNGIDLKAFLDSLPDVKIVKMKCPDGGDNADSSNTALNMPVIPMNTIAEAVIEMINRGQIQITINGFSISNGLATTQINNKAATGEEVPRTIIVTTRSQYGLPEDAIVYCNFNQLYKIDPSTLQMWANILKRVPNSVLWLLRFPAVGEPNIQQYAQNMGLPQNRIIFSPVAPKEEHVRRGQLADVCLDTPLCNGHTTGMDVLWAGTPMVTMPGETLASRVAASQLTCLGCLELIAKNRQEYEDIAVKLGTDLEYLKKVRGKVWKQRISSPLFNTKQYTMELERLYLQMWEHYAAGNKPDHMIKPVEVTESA
Effect on: binding
Technique: phage display NGS
Molecule type: peptide
Concentration: concentration not given
Notes: normalized abundance
Relative to: input library
Molecule | enrichment fold change
HSQHAIHHTIDNHA | 11.3
HVTHMHLHRQSDGI | 7.84
HILVPMRPMTHHHAV | 8.38
QLKHTIHHHHTAPRY | 7.7
HYRSHHTPTQYYYAN | 6.75
HFKWYGWSEMDQHTH | 19.5
VLIFPPQYQMFISSY | 10.6
QMDGMFPPKYQINSF | 12

Study 2
Target: tungstate, free oxyanion
Technique: microfluidic competitive inhibition
Medium: in vitro, cell-free expressed
Concentration: not given
Notes: derived from inhibition constants, unchanged parent 2230 nM
Reading: lower = stronger binding
Starting sequence: PafA, mature enzyme, eGFP fusion (Elizabethkingia meningoseptica, UniProt Q9KJX5); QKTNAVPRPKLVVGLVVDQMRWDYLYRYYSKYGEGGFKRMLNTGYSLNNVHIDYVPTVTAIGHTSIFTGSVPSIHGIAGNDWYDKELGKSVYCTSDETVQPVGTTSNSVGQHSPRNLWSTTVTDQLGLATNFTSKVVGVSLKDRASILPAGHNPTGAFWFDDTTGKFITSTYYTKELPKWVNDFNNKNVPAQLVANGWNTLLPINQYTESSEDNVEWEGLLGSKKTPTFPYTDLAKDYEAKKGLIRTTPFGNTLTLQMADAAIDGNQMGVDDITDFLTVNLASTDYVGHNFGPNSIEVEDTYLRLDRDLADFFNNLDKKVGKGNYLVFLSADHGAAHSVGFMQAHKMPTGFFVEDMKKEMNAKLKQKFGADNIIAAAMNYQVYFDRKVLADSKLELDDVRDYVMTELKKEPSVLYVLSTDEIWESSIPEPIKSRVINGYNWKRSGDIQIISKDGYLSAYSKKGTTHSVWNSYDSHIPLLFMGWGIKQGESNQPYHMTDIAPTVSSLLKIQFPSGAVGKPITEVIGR
Variant | oxyanion analog dissociation constant
G110V | 2400 nM
I77V | 2060 nM
E97V | 2310 nM
G14V | 2520 nM
G288V | 3170 nM
I427G | 1150 nM
H337G | 1630 nM
T104G | 3290 nM

Study 3
Target: CCNF, cyclin fold, Cln2 fusion (human)
Technique: yeast growth competition, sequencing
Medium: yeast
Notes: strong parent motif
Relative to: not given
Reading: higher = stronger binding
Starting sequence: viral docking peptide; KGVKRKLFAEDSS; partner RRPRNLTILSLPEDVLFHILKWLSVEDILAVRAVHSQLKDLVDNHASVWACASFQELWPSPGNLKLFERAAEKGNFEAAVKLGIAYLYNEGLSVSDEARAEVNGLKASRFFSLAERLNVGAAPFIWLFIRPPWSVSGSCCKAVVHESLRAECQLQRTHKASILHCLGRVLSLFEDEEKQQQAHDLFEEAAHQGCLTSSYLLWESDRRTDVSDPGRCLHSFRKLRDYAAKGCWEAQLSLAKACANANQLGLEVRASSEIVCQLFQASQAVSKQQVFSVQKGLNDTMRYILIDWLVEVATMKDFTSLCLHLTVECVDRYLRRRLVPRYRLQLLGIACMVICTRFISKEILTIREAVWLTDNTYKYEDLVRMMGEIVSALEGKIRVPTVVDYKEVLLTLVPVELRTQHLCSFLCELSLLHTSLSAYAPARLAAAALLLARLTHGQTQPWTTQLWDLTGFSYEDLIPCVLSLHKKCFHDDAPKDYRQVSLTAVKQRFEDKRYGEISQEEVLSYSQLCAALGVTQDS
Variant | normalised enrichment score
V3P | 8.06
A9L | 8.3
V3E | 1.27
R5K F8L | 0.756
L7M | 0.3
V3A | 7.81
L7R | 0.65
L7D | 0.289

Further values, each from its own experiment
SMILES | target | assay | setting | scale | quantity | result
CCn1cnc2c(Nc3cccc(Cl)c3)nc(N[C@H]3CCCC[C@H]3N)nc21 | Serine/threonine-protein kinase MARK2 (MARK2, Homo sapiens, UniProt Q7KZI7) | enzyme activity, inhibitor | 0.5 µM | relative to: control | remaining activity | 90.1%

Repeated from above (study 1):
Molecule | enrichment fold change
QLKHTIHHHHTAPRY | 7.7
HYRSHHTPTQYYYAN | 6.75
QMDGMFPPKYQINSF | 12
HILVPMRPMTHHHAV | 8.38
